Published values pooled from the literature.
Numbered parts are unrelated; each lists some results of a single study. Substitutions count along the parent as printed.

Sample 1 — method: RNA Bind-n-Seq; molecule type: RNA; matrix: in vitro; tested at: not given; baseline: input RNA pool; direction: higher = stronger binding
Target: RING finger protein unkempt homolog, zinc fingers 1-6, GST-SBP tag (UNK, Homo sapiens, UniProt Q9C0B0, residues 30-357)
UniProt Q9C0B0, sequence (30-357, looked up): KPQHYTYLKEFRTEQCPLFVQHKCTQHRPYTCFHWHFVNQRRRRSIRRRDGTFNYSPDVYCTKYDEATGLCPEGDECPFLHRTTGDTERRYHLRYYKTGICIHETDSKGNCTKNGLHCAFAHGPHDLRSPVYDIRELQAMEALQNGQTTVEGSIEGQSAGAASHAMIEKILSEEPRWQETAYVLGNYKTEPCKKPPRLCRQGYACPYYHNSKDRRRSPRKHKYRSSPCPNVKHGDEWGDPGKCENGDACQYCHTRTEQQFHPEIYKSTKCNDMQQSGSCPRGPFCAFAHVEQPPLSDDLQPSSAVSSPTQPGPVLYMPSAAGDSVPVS
Notes: RNA with constant flanks, human-mouse chimeric sites, ends assumed
With `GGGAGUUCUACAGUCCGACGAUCUUCAAAGGCUGUGUUAUCUGUGUCAUUUCAUAAGUAACUCUGGGGGAUAAGUGGAAGGUUCUUUUGUUUAAUUUUCCCCCAAAUGAAGCCAAAGUGUGUGUUGAAGAACUGAGAAAAAAUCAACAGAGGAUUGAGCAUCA` the bound/input enrichment was 0.165 ratio.
`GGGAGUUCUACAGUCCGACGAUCAAUUUCCUGUCAUACUUUUUAGACAUUCACAUCAGACUUACAGAGCACCUGGCCACAUUCUAGGUUUGAAUUAUUUCUCAGCUAUGGGGGUAUGAUUAUGAGAACACUGCUUAACUAAUGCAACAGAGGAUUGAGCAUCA` gave a bound/input enrichment of 1.5 ratio.
`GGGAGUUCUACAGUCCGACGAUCGUUGCCAGCUUCCGGUUCCGUUGGGCUAGCAAGCUCCCUGAGCUACGUGUCUCUACGUUUUAGGUGUGCCAUCCAACAAACAUGGAUCAGGUAAUGCAGUUUGUGGAGCCCAGCCGGCAGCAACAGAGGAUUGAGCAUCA` has a bound/input enrichment of 0.113 ratio.
For `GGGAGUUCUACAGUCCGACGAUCUCGGAUGCUGUGCUGGGUCACUUUCCGUAUCCAGAUCCUUCACAGUGGACAGAUGAAGAACUGGGAAUCCCUCCUGAUGACGAGGACUGACACUGUAGACUCAGCCUACGAGUAGGAGCACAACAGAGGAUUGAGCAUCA`, the bound/input enrichment was 0.312 ratio.
`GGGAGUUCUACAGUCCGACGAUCUCAGGAACUCAGACAAACAUGAAUGUAAAUGAAGUCAUUAGCAACAGAGCAAUUGAAAUGUUAGGAGGUGAACUUGGCAGCAAGAUACCUGUGCACCCCAAUGAUCAUGUUAACAAAAGCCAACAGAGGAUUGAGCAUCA` gave a bound/input enrichment of 0.263 ratio.
With `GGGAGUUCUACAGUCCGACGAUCCAGUUGAAGACAGAAAAGGAUGAGAAGGAGCUGUAUAAGGUACAUUUGAAGAAUACAGAAAUAGAAAAUACGAAGCUUGUGUCAGAGAUACAGACUUUAAAGAAUUUAGAUGGGAACAAACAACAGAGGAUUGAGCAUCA` the bound/input enrichment was 3.35 ratio.
`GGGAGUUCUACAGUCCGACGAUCUGUGCCCCACAAGAUCCUGAAGUUUGAGCAGCUGAAGUUGACUCCCUCUCCUUGCCUGAACCCCCCCCCACUGCCCCCCCAUCCCCCAGUGUCGGCUGAGAUGUUGCCUCUGCACGGUUCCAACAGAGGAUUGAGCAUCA` has a bound/input enrichment of 1.32 ratio.
With `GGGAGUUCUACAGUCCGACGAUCAGAGAUAAGACAUCCAGGAACAUGCGAGGGUCACGGAUGAAUGGGUUGCCUAGCCCCACUCACAGCGCCCACUGUAGCUUCUACAGAACCAGAACCUUGCAGGCACUGAGUAAUGAGAAGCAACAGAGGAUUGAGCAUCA` the bound/input enrichment was 0.246 ratio.

Sample 2 — method: protein binding microarray; molecule type: double-stranded DNA, one strand shown; matrix: in vitro; tested at: not given; baseline: not given; direction: higher = stronger binding
Target: Histone acetyltransferase KAT6A, winged helix 2, GST fusion (KAT6A, Homo sapiens, UniProt Q92794, residues 85-181)
Notes: 8-mer, flanks averaged, mean of 2 arrays, mostly near background
Residues (chain): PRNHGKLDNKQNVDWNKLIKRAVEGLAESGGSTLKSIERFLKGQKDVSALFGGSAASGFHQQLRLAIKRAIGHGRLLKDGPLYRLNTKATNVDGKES
`CAGCGGCC` gave an E-score of 0.019.
`ACTGAAGT` has an E-score of 0.12.
The E-score of `CCCAGAGG` is reported as 0.0479.
The E-score of `ATTGCTTA` is reported as 0.0235.
With `CCCACCGA` the E-score was -0.00409.
The E-score of `TCGGAAGA` is reported as -0.0231.
`ATCGCCTC` gave an E-score of 0.119.
The E-score of `CGACCTTC` is reported as 0.0875.
`AACGTATG` has an E-score of -0.0871.
The E-score of `AACCCGTA` is reported as -0.24.
`CAGCTTCC` gave an E-score of 0.00409.
The E-score of `GTAAGTTA` is reported as -0.0238.
For `AAACAACT`, the E-score was -0.149.
For `GGAGTACC`, the E-score was -0.102.
For `ACGGGCCG`, the E-score was 0.0309.
`CAACGAAC` has an E-score of 0.0567.
The E-score of `ACCACTCG` is reported as 0.148.
`GGGCTGAA` has an E-score of 0.2.
`GAAAATAC` gave an E-score of -0.0199.
`AATTGGCC` has an E-score of -0.063.
With `GCAAATAA` the E-score was 0.176.
For `TTCTCAAA`, the E-score was 0.0897.
For `ATTAAGTC`, the E-score was 0.0646.
The E-score of `CTCTGCAA` is reported as 0.0175.

Sample 3 — method: protein-binding microarray; molecule type: double-stranded DNA, one strand shown; matrix: in vitro; tested at: 2200 nM top; notes: 60-bp whole probe; with: salmon DNA 0.4 mg/ml; baseline: random background probes; direction: higher = stronger binding; shared flanks, not repeated: GCCTAGCAC … GTCTTGATTCGCTTGACGCTGCTG
Target: Interferon regulatory factor 7, full length, phosphomimetic (IRF7, Homo sapiens, UniProt Q92985, residues 1-503, S471D/S472D/S475D/S476D/S477D/S483D/S484D/S487D)
Residues (chain): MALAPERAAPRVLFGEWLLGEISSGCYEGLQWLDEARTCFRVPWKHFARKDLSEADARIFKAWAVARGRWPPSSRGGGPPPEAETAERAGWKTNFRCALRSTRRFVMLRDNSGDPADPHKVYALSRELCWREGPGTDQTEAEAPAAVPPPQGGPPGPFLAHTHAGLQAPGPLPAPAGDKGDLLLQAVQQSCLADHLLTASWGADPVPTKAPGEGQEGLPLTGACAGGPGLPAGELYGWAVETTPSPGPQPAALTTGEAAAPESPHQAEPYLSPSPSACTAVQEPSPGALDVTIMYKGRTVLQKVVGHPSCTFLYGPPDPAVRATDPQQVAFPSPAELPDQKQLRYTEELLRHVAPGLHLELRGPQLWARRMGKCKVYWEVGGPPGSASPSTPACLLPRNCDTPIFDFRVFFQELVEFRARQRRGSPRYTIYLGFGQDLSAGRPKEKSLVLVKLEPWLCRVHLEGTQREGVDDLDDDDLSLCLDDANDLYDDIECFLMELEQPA
`CTTTAACTTATTCTCTACTTGTGCTAG`: “fitted relative affinity” 1.1 z-score.
`CTTGCTCTGTGCATAGGTCTGTGCTAG`: “fitted relative affinity” 0.363 z-score.
For `ATCTTCATGAAATTTTAGTAAGTGCTA`, “fitted relative affinity” read -0.394 z-score.
`TGAAATTTTAGTAACACAGAGTGCTAG` — result for “fitted relative affinity”: -0.709 z-score.
`CACTAGTTTCTTTTCTTTTCGTGCTAG`: “fitted relative affinity” 7.21 z-score.
Under “fitted relative affinity”, `GACGGTTTCGACACTTGGGACGTGCTA` is recorded as 2.44 z-score.
For `TTAGGTTTCGACACTGTGTTAGTGCTA`, “fitted relative affinity” read 2.19 z-score.
Under “fitted relative affinity”, `TCATATTTGTTTCCATTACTGTGCTAG` is recorded as 2.67 z-score.
`TAATTTTTACTTTCTGAATGGTGCTAG` — result for “fitted relative affinity”: 4.37 z-score.
`GACGGTATCGGTCTCGGCACGTGCTAG` — result for “fitted relative affinity”: -0.0257 z-score.
`TTAGAACTGACTCTCGATTAGTGCTAG` — result for “fitted relative affinity”: -0.091 z-score.
For `GACGAACTGAGTCGCGAGACGTGCTAG`, “fitted relative affinity” read -0.0711 z-score.
For `TTAAAACTGAGTATCGATTAGTGCTAG`, “fitted relative affinity” read -0.457 z-score.
For `CTAGTTTTTACTTTCTGAATGTGCTAG`, “fitted relative affinity” read 4.45 z-score.
Under “fitted relative affinity”, `TCATTTTTCCGAGTGAGACTGTGCTAG` is recorded as 1.47 z-score.
Under “fitted relative affinity”, `TTAGGAGTGGGTATCGGTTAGTGCTAG` is recorded as -0.0451 z-score.
For `GACGGTCTCCTAGTGCTGACGTGCTAG`, “fitted relative affinity” read -0.106 z-score.
`TCATCTCTGCCACTCAGACTGTGCTAG`: “fitted relative affinity” 1.36 z-score.
Under “fitted relative affinity”, `GACGGTATCGGGTCTGGGGACGTGCTA` is recorded as -0.287 z-score.

Sample 4 — target: CCNB2, cyclin fold, Cln2 fusion (human); method: yeast growth competition, sequencing; matrix: yeast; notes: weak parent motif; baseline: not given; direction: higher = stronger binding
Starting sequence: SLBP docking peptide (human); ARYKRKLLINDFG
Under “normalised enrichment score”, `D11V` is recorded as 0.46.
`K4R` — result for “normalised enrichment score”: 0.668.
`R2D` — result for “normalised enrichment score”: 0.75.
`A1T`: “normalised enrichment score” 1.34.
Under “normalised enrichment score”, `Y3S` is recorded as 1.15.
For `F12N`, “normalised enrichment score” read 1.56.
`K6T` — result for “normalised enrichment score”: 0.654.
`R5W` — result for “normalised enrichment score”: -0.256.
For `L7F`, “normalised enrichment score” read 0.641.
`L8K` — result for “normalised enrichment score”: -0.214.
`K4S` — result for “normalised enrichment score”: 0.185.
`A1C` — result for “normalised enrichment score”: 0.43.
Under “normalised enrichment score”, `R5C` is recorded as 0.689.
`A1Q` — result for “normalised enrichment score”: -0.06.
Under “normalised enrichment score”, `R2E` is recorded as 0.389.
`I9Q`: “normalised enrichment score” -0.187.
Under “normalised enrichment score”, `R2L` is recorded as 0.798.
`G13W`: “normalised enrichment score” 0.244.
For `L7W`, “normalised enrichment score” read -0.044.
`R5I` — result for “normalised enrichment score”: 0.371.
Under “normalised enrichment score”, `K6A` is recorded as 0.872.
Under “normalised enrichment score”, `D11M` is recorded as 1.04.

Repeated from above (sample 3):
`TTAGAACTGACTCTCGATTAGTGCTAG` — result for “fitted relative affinity”: -0.091 z-score.
For `CTAGTTTTTACTTTCTGAATGTGCTAG`, “fitted relative affinity” read 4.45 z-score.
Under “fitted relative affinity”, `GACGGTTTCGACACTTGGGACGTGCTA` is recorded as 2.44 z-score.
Under “fitted relative affinity”, `TCATATTTGTTTCCATTACTGTGCTAG` is recorded as 2.67 z-score.
`CTTGCTCTGTGCATAGGTCTGTGCTAG`: “fitted relative affinity” 0.363 z-score.
`TGAAATTTTAGTAACACAGAGTGCTAG` — result for “fitted relative affinity”: -0.709 z-score.
